Published values collected from several papers.
Parts stem from different laboratories: compare values within a part only. Several values in a cell are separate wells, animals, samples, runs or records.
UniProt P10721, sequence (whole entry, unmodified, looked up): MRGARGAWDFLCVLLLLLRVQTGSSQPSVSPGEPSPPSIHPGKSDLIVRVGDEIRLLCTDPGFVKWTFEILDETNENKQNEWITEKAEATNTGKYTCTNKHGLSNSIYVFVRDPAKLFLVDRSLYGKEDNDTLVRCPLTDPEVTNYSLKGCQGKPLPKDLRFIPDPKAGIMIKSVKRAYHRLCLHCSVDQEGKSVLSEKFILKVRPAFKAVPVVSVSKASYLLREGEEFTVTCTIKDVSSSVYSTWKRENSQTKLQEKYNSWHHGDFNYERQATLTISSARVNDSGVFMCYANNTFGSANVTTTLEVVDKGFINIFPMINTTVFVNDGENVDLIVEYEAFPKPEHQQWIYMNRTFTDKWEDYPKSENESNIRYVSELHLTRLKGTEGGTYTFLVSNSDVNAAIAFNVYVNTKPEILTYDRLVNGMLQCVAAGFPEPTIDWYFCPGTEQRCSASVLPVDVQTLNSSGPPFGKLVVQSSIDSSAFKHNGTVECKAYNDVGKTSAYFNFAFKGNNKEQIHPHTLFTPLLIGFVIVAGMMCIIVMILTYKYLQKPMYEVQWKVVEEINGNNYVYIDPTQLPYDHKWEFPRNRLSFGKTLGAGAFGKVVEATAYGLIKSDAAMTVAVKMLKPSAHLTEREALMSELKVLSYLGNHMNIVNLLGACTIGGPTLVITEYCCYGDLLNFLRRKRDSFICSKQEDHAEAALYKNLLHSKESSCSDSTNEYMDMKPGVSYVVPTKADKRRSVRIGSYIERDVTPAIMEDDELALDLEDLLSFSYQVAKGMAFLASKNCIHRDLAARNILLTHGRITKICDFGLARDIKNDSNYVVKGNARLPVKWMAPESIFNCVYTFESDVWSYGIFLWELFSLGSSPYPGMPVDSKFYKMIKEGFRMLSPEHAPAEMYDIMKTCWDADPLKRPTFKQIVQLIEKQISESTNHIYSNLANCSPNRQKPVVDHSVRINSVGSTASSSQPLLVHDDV
UniProt O14733, sequence (whole entry, looked up): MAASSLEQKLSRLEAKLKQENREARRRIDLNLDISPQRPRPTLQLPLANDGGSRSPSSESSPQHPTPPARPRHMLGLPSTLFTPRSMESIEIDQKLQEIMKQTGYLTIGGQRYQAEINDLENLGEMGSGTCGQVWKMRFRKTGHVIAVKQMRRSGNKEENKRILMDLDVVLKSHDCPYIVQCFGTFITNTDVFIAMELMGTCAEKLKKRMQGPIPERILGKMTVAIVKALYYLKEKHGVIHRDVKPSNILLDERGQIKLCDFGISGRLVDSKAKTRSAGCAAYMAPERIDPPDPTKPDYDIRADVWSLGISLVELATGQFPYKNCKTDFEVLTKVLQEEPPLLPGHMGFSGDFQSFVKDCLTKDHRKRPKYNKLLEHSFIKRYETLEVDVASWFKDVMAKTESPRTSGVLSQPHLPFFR
UniProt P0C264, sequence (whole entry, looked up): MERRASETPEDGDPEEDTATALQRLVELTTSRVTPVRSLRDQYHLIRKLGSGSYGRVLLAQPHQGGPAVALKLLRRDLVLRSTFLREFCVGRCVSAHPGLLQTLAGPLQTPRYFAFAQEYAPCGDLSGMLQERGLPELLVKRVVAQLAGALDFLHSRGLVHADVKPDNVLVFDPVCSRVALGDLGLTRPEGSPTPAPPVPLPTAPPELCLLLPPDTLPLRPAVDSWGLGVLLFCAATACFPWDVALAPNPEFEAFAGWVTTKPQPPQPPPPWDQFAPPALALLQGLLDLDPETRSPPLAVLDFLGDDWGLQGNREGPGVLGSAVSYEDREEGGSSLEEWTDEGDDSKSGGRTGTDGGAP
UniProt Q9C098, sequence (whole entry, looked up): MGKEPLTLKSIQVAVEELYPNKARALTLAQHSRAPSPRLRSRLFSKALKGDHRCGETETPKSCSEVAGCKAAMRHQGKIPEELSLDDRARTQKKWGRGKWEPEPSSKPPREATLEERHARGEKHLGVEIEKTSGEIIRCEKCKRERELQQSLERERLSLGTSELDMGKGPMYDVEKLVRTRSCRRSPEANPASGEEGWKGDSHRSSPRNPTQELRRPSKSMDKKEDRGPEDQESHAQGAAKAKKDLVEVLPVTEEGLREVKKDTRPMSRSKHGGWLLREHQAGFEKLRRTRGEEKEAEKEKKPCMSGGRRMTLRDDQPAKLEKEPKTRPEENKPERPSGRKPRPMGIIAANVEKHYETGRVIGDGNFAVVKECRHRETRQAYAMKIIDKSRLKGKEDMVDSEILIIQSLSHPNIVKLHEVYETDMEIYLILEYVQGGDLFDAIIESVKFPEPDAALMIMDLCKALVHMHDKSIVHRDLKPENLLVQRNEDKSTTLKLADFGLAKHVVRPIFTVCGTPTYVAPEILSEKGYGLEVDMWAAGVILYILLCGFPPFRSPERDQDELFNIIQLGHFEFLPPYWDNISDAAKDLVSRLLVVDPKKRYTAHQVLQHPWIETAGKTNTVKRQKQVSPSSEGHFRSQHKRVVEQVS
UniProt P49759, sequence (whole entry, looked up): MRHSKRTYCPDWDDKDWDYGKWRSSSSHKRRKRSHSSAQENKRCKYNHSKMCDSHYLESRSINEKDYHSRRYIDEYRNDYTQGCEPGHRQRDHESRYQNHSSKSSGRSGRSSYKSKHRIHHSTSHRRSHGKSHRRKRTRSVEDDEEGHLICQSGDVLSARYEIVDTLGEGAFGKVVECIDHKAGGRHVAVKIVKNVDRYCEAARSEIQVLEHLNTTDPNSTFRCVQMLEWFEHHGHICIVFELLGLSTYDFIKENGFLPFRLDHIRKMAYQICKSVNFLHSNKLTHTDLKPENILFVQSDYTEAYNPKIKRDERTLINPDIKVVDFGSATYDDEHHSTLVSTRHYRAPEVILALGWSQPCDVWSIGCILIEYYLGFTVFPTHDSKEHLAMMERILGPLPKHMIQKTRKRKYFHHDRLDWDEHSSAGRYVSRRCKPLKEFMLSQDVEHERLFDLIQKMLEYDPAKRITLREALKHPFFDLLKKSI
UniProt Q7L7X3, sequence (whole entry, looked up): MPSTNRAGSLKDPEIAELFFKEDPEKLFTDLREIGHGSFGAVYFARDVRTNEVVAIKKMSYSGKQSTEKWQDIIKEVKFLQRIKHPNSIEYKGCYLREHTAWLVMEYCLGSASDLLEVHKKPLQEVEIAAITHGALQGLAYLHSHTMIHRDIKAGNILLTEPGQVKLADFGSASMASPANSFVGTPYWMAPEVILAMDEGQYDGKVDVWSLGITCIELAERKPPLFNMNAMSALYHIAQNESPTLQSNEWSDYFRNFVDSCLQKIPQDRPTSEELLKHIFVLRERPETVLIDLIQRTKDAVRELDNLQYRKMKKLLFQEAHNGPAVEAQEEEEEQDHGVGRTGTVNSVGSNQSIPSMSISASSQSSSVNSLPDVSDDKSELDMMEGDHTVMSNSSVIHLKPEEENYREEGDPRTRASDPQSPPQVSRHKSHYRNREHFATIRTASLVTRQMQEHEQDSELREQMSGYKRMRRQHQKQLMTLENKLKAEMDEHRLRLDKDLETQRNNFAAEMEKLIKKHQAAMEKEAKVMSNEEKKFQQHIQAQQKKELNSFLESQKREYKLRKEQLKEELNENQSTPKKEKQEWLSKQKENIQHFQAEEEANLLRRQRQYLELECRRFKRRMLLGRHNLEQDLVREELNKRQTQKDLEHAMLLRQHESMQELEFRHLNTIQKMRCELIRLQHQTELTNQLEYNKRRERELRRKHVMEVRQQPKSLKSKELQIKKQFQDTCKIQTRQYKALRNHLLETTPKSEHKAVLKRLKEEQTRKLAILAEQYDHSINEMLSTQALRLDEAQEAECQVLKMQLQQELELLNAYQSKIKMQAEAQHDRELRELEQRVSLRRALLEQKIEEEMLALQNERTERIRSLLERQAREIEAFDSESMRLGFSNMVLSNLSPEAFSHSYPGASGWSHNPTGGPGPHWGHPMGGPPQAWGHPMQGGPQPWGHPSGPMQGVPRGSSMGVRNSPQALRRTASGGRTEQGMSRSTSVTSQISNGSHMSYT
UniProt Q15208, sequence (whole entry, looked up): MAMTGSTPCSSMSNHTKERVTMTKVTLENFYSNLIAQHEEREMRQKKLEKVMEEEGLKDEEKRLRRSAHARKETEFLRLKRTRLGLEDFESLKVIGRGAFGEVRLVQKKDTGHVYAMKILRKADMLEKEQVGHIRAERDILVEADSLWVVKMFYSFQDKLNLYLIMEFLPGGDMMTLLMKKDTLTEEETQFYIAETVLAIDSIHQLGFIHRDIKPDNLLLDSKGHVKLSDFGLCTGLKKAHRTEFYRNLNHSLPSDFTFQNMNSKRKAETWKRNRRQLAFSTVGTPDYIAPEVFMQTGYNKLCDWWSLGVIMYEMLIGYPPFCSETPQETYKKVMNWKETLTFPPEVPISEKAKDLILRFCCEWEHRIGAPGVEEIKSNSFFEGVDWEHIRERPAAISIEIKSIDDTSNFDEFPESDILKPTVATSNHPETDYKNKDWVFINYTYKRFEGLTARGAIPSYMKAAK

Sample 1
Structure (SMILES): CN1CCN(c2cnc3c(C4CCN(C(=O)c5ccc(OC(F)(F)F)cc5N)CC4)ncnc3c2)CC1
Observed: cell-free assay
Method: competition with immobilised ligand
Tested at: 1 µM
target | remaining binding [%]
BRSK1 (Homo sapiens, UniProt Q8TDC3) | 100
Ribosomal protein S6 kinase alpha-4, C-terminal kinase domain (RPS6KA4, Homo sapiens, UniProt O75676) | 100
MAP4K5 (Homo sapiens, UniProt Q9Y4K4) | 99
CLK1 (Homo sapiens, UniProt P49759) | 100
DCLK3 (Homo sapiens, UniProt Q9C098) | 91
STK38 (Homo sapiens, UniProt Q15208) | 80
EGFR (Homo sapiens, UniProt P00533, del752-759) | 38
SRMS (Homo sapiens, UniProt Q9H3Y6) | 100
KIT (Homo sapiens, UniProt P10721, L576P) | 95
NTRK2 (Homo sapiens, UniProt Q16620) | 100
EGFR (Homo sapiens, UniProt P00533, L861Q) | 100
NEK10 (Homo sapiens, UniProt Q6ZWH5) | 100
MAP2K7 (Homo sapiens, UniProt O14733) | 100
TAOK1 (Homo sapiens, UniProt Q7L7X3) | 100
DYRK1A (Homo sapiens, UniProt Q13627) | 100
SBK3 (Homo sapiens, UniProt P0C264) | 72
KIT (Homo sapiens, UniProt P10721, A829P) | 100
RAF1 (Homo sapiens, UniProt P04049) | 75
PAK2 (Homo sapiens, UniProt Q13177) | 100

Sample 2
Host: human
Sample: microsomes or S9
Tested at: 2 µM
Time: 0.5 h
SMILES | remaining compound
COc1ccc(OC)c(CNC(=O)C23CCCC=C2N(C2CCCC2)C(=O)CC3)c1 (centres unmarked) | 1.18%
C[C@H](Nc1ncnc2[nH]cnc12)c1cc2ccccc2nc1-c1ccccc1 | 63.9%
Cc1nn(-c2n[nH]c(C)c2Br)c(C)c1C | 59.3%
C/C(=C/c1cnc2ccsc2c1)c1cnccn1 | 16.6%
CC(=O)c1ccc(/C=C/c2ccc(C(C)(C)C)cc2)n1C | > 100%

Sample 3
SMILES: O=C(NC1CCNCC1)c1n[nH]cc1NC(=O)c1c(Cl)cccc1Cl
Method: trypan blue exclusion
Time: 48 h
Baseline: untreated
cell line | conditions | viability
HuT78 | 0.0001 µM | 104%
HuT78 | 0.05 µM | 107%
HuT78 | 0.5 µM | 36.5% and 51%
HuT78 | 0.1 µM | 103% and 101%
HH | 10 µM | 0% and 3.05% and 3.06%
HH | 0.001 µM | 104% and 103%

Sample 4
Target: LIM domain kinase 1 (LIMK1, Homo sapiens, UniProt P53667)
UniProt P53667, sequence (whole entry, looked up): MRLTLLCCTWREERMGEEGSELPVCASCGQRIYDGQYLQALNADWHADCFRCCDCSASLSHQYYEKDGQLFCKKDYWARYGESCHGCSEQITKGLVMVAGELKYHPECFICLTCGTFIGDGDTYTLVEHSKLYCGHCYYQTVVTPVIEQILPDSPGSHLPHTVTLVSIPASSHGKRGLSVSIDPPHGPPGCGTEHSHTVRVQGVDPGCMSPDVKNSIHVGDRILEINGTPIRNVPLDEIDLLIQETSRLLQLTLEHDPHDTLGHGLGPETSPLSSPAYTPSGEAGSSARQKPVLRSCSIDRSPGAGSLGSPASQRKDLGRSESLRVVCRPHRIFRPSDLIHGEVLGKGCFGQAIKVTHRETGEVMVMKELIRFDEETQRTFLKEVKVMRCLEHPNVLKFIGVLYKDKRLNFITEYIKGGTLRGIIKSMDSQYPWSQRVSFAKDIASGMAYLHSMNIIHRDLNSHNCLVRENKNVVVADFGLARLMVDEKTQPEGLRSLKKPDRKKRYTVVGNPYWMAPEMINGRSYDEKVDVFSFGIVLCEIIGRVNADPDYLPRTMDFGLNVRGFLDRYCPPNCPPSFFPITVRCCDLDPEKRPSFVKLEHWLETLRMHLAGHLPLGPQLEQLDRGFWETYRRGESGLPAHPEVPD
Observed: enzyme activity
Mode: inhibitor
Tested at: 0.5 µM
Baseline: control
Structure (SMILES) | remaining activity
COc1cc2ncnc(Nc3ccc(Oc4ccccc4)cc3)c2cc1OC | 89%
Cn1c2ccccc2c2c3c(c4c5ccccc5n(CCC#N)c4c21)CNC3=O | 45.3%
O=C1NC(=O)C(c2cn(CCCO)c3ncccc23)=C1c1cnccn1 | 96.4%
COc1ccc(OC)c2c(=S)c3ccccc3[nH]c12 | 108%
CCOC(=O)c1c(C)[nH]c(/C=C2\C(=O)Nc3ccccc32)c1C | 81.3%
Cc1nc(-c2ccccc2)c(-c2ccncc2)o1 | 95.5%
O=S(=O)(c1cccc2cnccc12)N1CCCNCC1 | 100%
COc1cc2ncnc(Nc3ccc(F)c(Cl)c3)c2cc1OCCCN1CCOCC1 | 90%
COc1ccc(C(=O)Nc2sc3c(c2C(N)=O)CCCC3)cc1OC | 93.2%
O=c1c2ccccc2[nH]c(=S)n1CCN1CCC(=C(c2ccc(F)cc2)c2ccc(F)cc2)CC1 | 98.4%
COc1ccc(CNC(=O)Nc2ncc([N+](=O)[O-])s2)cc1 | 96%
NCCNc1ncc(C(N)=O)c(Nc2cccc(C(F)(F)F)c2)n1 | 77.5%
Nc1[nH]nc2nc3ccccc3nc12 | 105%
CO[C@H]1C[C@@H]2CC[C@@H](C)[C@@](O)(O2)C(=O)C(=O)N2CCCC[C@H]2C(=O)O[C@H]([C@H](C)C[C@@H]2CC[C@@H](O)[C@H](OC)C2)CC(=O)[C@H](C)/C=C(\C)[C@@H](O)[C@@H](OC)C(=O)[C@H](C)C[C@H](C)/C=C/C=C/C=C/1C | 89.8%

Some of these lines once more (sample 4):
Structure (SMILES) | remaining activity
COc1ccc(C(=O)Nc2sc3c(c2C(N)=O)CCCC3)cc1OC | 93.2%
O=C1NC(=O)C(c2cn(CCCO)c3ncccc23)=C1c1cnccn1 | 96.4%
